Measurements of several laboratories.
Protocols differ between the studies behind these lines. Numbers after ± are the reported error.
Chain of UniProt Q8NKB0 (whole entry, unmodified, looked up): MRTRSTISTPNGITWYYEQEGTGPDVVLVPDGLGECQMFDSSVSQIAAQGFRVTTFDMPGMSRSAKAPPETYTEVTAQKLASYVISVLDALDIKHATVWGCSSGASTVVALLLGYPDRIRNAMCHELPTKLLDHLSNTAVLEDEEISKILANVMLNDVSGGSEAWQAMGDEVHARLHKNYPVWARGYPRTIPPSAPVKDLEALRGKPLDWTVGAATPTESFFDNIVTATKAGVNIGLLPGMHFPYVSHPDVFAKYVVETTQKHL
Chain of UniProt Q8N695 (whole entry, looked up): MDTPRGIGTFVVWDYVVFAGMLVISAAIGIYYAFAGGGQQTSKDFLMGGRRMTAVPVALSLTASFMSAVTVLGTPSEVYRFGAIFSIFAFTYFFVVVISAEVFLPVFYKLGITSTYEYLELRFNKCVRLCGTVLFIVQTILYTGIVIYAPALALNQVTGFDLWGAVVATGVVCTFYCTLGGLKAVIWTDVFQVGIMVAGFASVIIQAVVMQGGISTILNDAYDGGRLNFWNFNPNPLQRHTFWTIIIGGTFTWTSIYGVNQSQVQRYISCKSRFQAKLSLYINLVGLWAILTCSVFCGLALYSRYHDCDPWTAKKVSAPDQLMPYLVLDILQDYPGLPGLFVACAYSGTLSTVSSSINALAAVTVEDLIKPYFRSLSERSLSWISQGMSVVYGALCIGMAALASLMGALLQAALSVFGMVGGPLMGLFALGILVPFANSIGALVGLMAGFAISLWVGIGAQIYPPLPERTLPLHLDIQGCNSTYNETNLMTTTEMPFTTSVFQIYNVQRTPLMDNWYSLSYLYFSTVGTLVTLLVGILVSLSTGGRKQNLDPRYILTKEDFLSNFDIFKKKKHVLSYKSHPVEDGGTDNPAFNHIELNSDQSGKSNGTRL
Chain of UniProt P0AEE3 (whole entry, looked up): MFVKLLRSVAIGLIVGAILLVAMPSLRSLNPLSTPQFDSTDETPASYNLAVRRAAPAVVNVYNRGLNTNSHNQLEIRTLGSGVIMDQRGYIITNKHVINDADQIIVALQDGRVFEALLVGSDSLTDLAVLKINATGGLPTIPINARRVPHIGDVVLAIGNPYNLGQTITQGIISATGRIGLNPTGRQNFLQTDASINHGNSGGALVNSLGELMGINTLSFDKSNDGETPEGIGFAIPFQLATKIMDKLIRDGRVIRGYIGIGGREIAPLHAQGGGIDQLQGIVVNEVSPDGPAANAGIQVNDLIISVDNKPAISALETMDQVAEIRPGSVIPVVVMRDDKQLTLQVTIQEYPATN
Chain of UniProt P42330 (whole entry, looked up): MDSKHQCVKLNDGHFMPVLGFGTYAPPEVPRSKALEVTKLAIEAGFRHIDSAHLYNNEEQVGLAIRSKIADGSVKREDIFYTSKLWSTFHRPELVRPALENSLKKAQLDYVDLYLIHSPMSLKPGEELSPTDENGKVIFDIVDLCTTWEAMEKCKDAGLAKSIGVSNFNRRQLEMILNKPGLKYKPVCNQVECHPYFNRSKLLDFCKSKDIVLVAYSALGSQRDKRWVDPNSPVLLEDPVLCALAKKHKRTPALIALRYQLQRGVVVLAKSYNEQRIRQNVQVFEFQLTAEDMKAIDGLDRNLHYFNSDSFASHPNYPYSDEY
Chain of UniProt O00748 (whole entry, looked up): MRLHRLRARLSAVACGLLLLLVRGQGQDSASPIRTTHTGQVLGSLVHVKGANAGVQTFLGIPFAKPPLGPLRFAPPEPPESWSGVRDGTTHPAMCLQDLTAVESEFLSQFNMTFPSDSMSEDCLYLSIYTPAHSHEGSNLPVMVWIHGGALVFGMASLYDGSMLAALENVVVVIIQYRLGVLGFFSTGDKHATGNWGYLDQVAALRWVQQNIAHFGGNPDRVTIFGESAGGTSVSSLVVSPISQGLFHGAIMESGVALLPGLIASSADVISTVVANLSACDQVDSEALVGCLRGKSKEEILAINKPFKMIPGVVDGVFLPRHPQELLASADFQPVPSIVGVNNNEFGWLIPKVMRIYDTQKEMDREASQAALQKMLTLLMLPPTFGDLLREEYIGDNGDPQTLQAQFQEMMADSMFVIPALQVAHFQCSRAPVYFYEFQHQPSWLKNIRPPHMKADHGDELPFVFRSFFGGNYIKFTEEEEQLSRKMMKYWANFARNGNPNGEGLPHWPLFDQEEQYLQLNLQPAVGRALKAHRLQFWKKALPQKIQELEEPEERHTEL
Chain of UniProt P04079 (whole entry, looked up): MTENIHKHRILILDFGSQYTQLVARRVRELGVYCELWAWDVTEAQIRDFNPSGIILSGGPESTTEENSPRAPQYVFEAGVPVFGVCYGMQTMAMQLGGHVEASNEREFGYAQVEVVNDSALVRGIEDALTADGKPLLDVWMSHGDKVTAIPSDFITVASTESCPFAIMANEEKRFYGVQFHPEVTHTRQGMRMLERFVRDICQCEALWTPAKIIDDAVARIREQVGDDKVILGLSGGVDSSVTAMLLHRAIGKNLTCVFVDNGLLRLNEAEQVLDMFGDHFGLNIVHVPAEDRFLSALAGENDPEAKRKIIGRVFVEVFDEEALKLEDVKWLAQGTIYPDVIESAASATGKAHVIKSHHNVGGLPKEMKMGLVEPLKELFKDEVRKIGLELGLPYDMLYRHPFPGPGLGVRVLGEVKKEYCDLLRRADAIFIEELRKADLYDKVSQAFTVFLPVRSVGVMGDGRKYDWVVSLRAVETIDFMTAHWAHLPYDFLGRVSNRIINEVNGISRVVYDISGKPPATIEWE

For `CN[C@@](C)(C[18F])C(=O)O`, the tracer uptake was 4.3 %ID/g (MDA-MB-468 tumour model; host not given, tumour; 15 min, tumour-bearing).
With `Nc1ncnc2c1ncn2[C@@H]1O[C@H](COP(=O)(O)OP(=O)(O)OP(=O)(O)O)[C@@H](O)[C@H]1O` the Km was 496 µM (Tyrosine--tRNA ligase 2 (tyrS2, Pseudomonas aeruginosa, UniProt Q9I5Q3); substrate, ATP-PPi exchange; TyrRS-Z, co-substrate 2 mM).
`C(CCC1CO1)CC1CO1` (stereo not drawn) has a Km of 4800 µM (Karenia brevis epoxide hydrolase; substrate; pH 7.0).
`CC(=O)SCCNC(=O)CCNC(=O)[C@H](O)C(C)(C)COP(=O)(O)OP(=O)(O)OC[C@H]1O[C@@H](n2cnc3c(N)ncnc32)[C@H](O)[C@@H]1OP(=O)(O)O` gave a Km of 39 ± 5 µM (2-isopropylmalate synthase (leuA, Neisseria meningitidis serogroup B, UniProt Q9JZG1); substrate, DTP-coupled; pH 7.5, 25 °C, wild-type enzyme, together with: α-ketoisovalerate 300 µM).
The Km of `COC1=C(OC)C(=O)C(C)=CC1=O` is reported as 104 ± 6.6 µM (Type II NADH dehydrogenase (Plasmodium falciparum, UniProt Q8I302); enzyme activity, substrate; together with: co-substrate 500 µM).
For `O=C(O)CCl`, the Km was 177 ± 16 µM (SLC5A8 (Homo sapiens, UniProt Q8N695); substrate).
With `CCCCCCCC(=O)Oc1cc(C(=O)O)ccc1[N+](=O)[O-]` the Km was 4430 µM (phospholipase A2 PhTX-III (Bothrocophias hyoprora); substrate; pH 8.0, 37 °C).
`COc1ccc2cc(C(C#N)OC(=O)CC3OC3c3ccccc3)ccc2c1` (stereo not drawn) has a Km of 13.6 µM (Karenia brevis epoxide hydrolase; substrate; pH 7.0).
With `Cc1cc(=O)oc2c(F)c(OP(=O)(O)O)c(F)cc12` the Km was 5800 ± 700 µM (PTPN11 (Homo sapiens, UniProt Q06124); substrate; pH 7.2).
With `Cc1c(C)n2c(CCl)c(C)c(=O)n2c1=O` the Km was 61 ± 26 µM (protein BstA (Staphylococcus aureus, UniProt A0A0H2XDW9); substrate; pH 7.0, 37 °C, together with: 220 nM enzyme).
`CC(C)[C@H](N)C(=O)N[C@@H](CCCNC(=N)N)C(=O)Nc1ccc2c(CC(N)=O)cc(=O)oc2c1` has a Km of 21 ± 2 µM (DPAP1 (Plasmodium falciparum, UniProt Q8IIJ9); hydrolysis, substrate, fluorogenic dipeptide, native enzyme; pH 6.0, 25 °C, together with: 30 mM chloride).
For `DNRDGNVYYF`, the Km was 750 ± 120 µM (Serine endoprotease DegS (degS, Escherichia coli, UniProt P0AEE3); measured: RseA; peptide; 23 °C, together with: OMP peptide).
For `O=[N+]([O-])c1ccc(Cl)c([N+](=O)[O-])c1`, the Km was 741 µM (Glutathione S-transferase mu 1 (Clonorchis sinensis, UniProt H2KRI2); substrate).
For `CCCCCCCCCCCC(=O)OC1CC(C)(C)N([O])C(C)(C)C1`, the Km was 38.3 ± 5.13 µM (Cocaine esterase (CES2, Homo sapiens, UniProt O00748)).
With `CC(=O)SCC[N+](C)(C)C` the Km was 6730 µM (acetylcholinesterase; substrate; Lymnaea acuminata, nervous tissue; pH 8.0, 25 °C, no inhibitor).
With `CN(CCCC(=O)c1cccnc1)N=O` the Km was 1150 ± 300 µM (AKR1C3 (Homo sapiens, UniProt P42330); substrate).
`OCCSSCCO` has a Km of 2100 µM (A438L (Paramecium bursaria Chlorella virus 1, UniProt Q98489)).
For `c1ccc([C@@H]2CO2)cc1`, the Km was 6240 µM (Karenia brevis epoxide hydrolase; substrate; pH 7.0).
`O=c1[nH]c(=O)c2ncn([C@H]3O[C@@H](COP(=O)(O)O)[C@H](O)[C@@H]3O)c2[nH]1` gave a Km of 317 ± 55.6 µM (GMP synthase [glutamine-hydrolyzing] (guaA, Escherichia coli, UniProt P04079); substrate, HPLC; together with: saturating ATP and NH4OAc).
The Tmax of `C[C@H]1CNCCc2ccc(Cl)cc21` is reported as 25.2 min (male Sprague-Dawley rat, plasma; subcutaneous, 3 mg/kg, single dose).
`C[C@H]1CCCC(=O)CCC/C=C/c2cc(O)cc(O)c2C(=O)O1` gave a Km of 78400 ± 4900 µM (zhd101 (Clonostachys rosea, UniProt Q8NKB0, D133K); substrate, HPLC; 10 min, pH 5.5, 37 °C, 1% acetonitrile).
`CNC(C)Cc1ccc2c(c1)OCO2` (racemic) gave a mood rating of 4.7 (visual analog scale, measured: Loving; human; oral, 0.75 mg/kg, mean over session, unit not given; baseline: pre-dose baseline).
The Km of `CC(C)C(=O)C(=O)O` is reported as 37 ± 3 µM (2-isopropylmalate synthase, heterodimer with wild-type (leuA, Neisseria meningitidis serogroup B, UniProt Q9JZG1, R470Q); enzyme activity, substrate, DTP-coupled; R470Q heterodimer, one chain, together with: acetyl-CoA 300 µM).
With `C/C1=C2/N[C@H]([C@H](CC(N)=O)[C@@]2(C)CCC(=O)NC[C@@H](C)OP(=O)(O)O[C@H]2[C@@H](O)[C@@H](n3cnc4cc(C)c(C)cc43)O[C@@H]2CO)[C@]2(C)N=C(/C(C)=C3N=C(/C=C4N=C1[C@@H](CCC(N)=O)C\4(C)C)[C@@H](CCC(N)=O)[C@]\3(C)CC(N)=O)[C@@H](CCC(N)=O)[C@]2(C)CC(N)=O.[Co]` the Km was 5 ± 2 µM (Corrinoid adenosyltransferase CobA (btuR, Salmonella typhimurium, UniProt P31570, F91W)).

Repeated from above:
For `CN[C@@](C)(C[18F])C(=O)O`, the tracer uptake was 4.3 %ID/g (MDA-MB-468 tumour model; host not given, tumour; 15 min, tumour-bearing).
For `O=[N+]([O-])c1ccc(Cl)c([N+](=O)[O-])c1`, the Km was 741 µM (Glutathione S-transferase mu 1 (Clonorchis sinensis, UniProt H2KRI2); substrate).
